Measurements gathered from unrelated publications.
Lines come from different studies, so protocols differ. ± gives the spread as reported.
B1: UGT1A9 (Homo sapiens, UniProt O60656); chain GKLLVVPMDGSHWFTMRSVVEKLILRGHEVVVVMPEVSWQLGRSLNCTVKTYSTSYTLEDLDREFKAFAHAQWKAQVRSIYSLLMGSYNDIFDLFFSNCRSLFKDKKLVEYLKESSFDAVFLDPFDNCGLIVAKYFSLPSVVFARGILCHYLEEGAQCPAPLSYVPRILLGFSDAMTFKERVRNHIMHLEEHLLCHRFFKNALEIASEILQTPVTEYDLYSHTSIWLLRTDFVLDYPKPVMPNMIFIGGINCHQGKPLPMEFEAYINASGEHGIVVFSLGSMVSEIPEKKAMAIADALGKIPQTVLWRYTGTRPSNLANNTILVKWLPQNDLLGHPMTRAFITHAGSHGVYESICNGVPMVMMPLFGDQMDNAKRMETKGAGVTLNVLEMTSEDLENALKAVINDKSYKENIMRLSSLHKDRPVEPLDLAVFWVEFVMRHKGAPHLRPAAHDLTWYQYHSLDVIGFLLAVVLTVAFITFKCCAYGYRKCLGKKGRVKKAHKSKTH

Substance	target or system	assay	system	conditions	endpoint	value
CC1NC(=O)C(C(=O)NC(C(=O)NC2C(=O)N3C2SC(C)(C)C3C(=O)O)c2ccccc2)=C1O (stereo not drawn)	Escherichia coli	broth microdilution	BW25113, Mueller-Hinton broth	added: CCCP 50 µg/mL	MIC	12.5 µg/mL
COc1ccc(-c2nc3cc(-c4nc5cc(N6CCN(C)CC6)ccc5[nH]4)ccc3[nH]2)cc1	Nakaseomyces glabratus	fungal growth	ATCC 2001	MIC-0 endpoint	MIC	3.9 to 7.8 µg/mL
CC1(C)S[C@@H]2[C@H](NC(=O)[C@H](N)c3ccccc3)C(=O)N2[C@H]1C(=O)O	Streptococcus pyogenes	broth microdilution	MTCC 442, Mueller-Hinton broth	48 h, 37 °C	MIC	100 µg/mL
C=C(C)[C@@H]1CC[C@]2(C(=O)O)CC[C@]3(C)[C@H](CC[C@@H]4[C@@]5(C)CC[C@H](O)C(C)(C)[C@@H]5CC[C@]43C)[C@@H]12	Nakaseomyces glabratus	broth microdilution	clinical isolate	48 h, 37 °C	MIC	500 µg/mL
CC1(C)SC2C(NC(=O)C(NC(=O)C3=C(O)C(Cc4ccco4)NC3=O)c3ccccc3)C(=O)N2C1C(=O)O (stereo not drawn)	Escherichia coli	broth microdilution	BW25113, Mueller-Hinton broth	added: CCCP 50 µg/mL	MIC	1.56 µg/mL
CC1(C)S[C@@H]2[C@H](NC(=O)[C@H](N)c3ccccc3)C(=O)N2[C@H]1C(=O)O	Porphyromonas gingivalis	serial dilution	ATCC 33277	24 h, 37 °C	MIC	7.5 ± 0.3 µg/mL
CC1(C)SC2C(NC(=O)C(NC(=O)C3=C(O)C4CCCN4C3=O)c3ccccc3)C(=O)N2C1C(=O)O (stereo not drawn)	Escherichia coli	broth microdilution	BW25113, Mueller-Hinton broth	added: CCCP 50 µg/mL	MIC	25 µg/mL
CTCATACTGA	Salmonella enterica Typhimurium	bacterial growth, broth microdilution	peptide, SL1344, MHB	24 h, 37 °C	MIC	5 µM
LIYWAST			peptide, human polyclonal IgM RF LOP	concentration not given, 5 µg/mL mAb II-481 coated, added: RF at 50% max binding concentration	inhibition	8%
Cc1cc(C)n(C(N)=S)n1.Cc1ccc(C(C)C)cc1.[Cl][Ru][Cl]	Proteus vulgaris	broth microdilution	ATCC 8427	24 to 48 h, 37 °C	MIC	> 1000 µg/mL
C=C(C)[C@@H]1CC[C@]2(C)CC[C@]3(C)[C@H](CC[C@@H]4[C@@]5(C)CC[C@H](O)C(C)(C)[C@@H]5CC[C@]43C)[C@@H]12	Nakaseomyces glabratus	broth microdilution	clinical isolate	48 h, 37 °C	MIC	500 µg/mL
LHNHYT			peptide, human polyclonal IgM RF MCC	concentration not given, 5 µg/mL mAb II-481 coated, added: RF at 50% max binding concentration	inhibition	0%
CC1(C)SC2C(NC(=O)C(NC(=O)C3=C(O)C(Cc4ccsc4)NC3=O)c3ccccc3)C(=O)N2C1C(=O)O (stereo not drawn)	Escherichia coli	broth microdilution	BW25113, Mueller-Hinton broth	added: 2,2'-bipyridyl 30 µg/mL	MIC	25 µg/mL
B1 (UGT1A9)	COc1cc2c(=O)c(-c3ccccc3)coc2cc1O	steady-state kinetics		pH 7.4, 37 °C	Vmax/Km	371 µL/min/mg
plantazolicin	Streptococcus pyogenes	broth microdilution	M1	12 h, 37 °C	MIC	> 48 µM

Some of these lines once more:
Substance	target or system	assay	system	conditions	endpoint	value
COc1ccc(-c2nc3cc(-c4nc5cc(N6CCN(C)CC6)ccc5[nH]4)ccc3[nH]2)cc1	Nakaseomyces glabratus	fungal growth	ATCC 2001	MIC-0 endpoint	MIC	3.9 to 7.8 µg/mL
CC1(C)S[C@@H]2[C@H](NC(=O)[C@H](N)c3ccccc3)C(=O)N2[C@H]1C(=O)O	Streptococcus pyogenes	broth microdilution	MTCC 442, Mueller-Hinton broth	48 h, 37 °C	MIC	100 µg/mL
